Published values of several laboratories.
A part holds a random share of what one study measured. Substitutions count along the parent as printed.

Set 1
Target: Histone acetyltransferase KAT6A, both winged helices, GST fusion (KAT6A, Homo sapiens, UniProt Q92794, residues 1-181)
Technique: protein binding microarray
Molecule type: double-stranded DNA, one strand shown
Matrix: in vitro
Tested at: not given
Setting: 8-mer, flanks averaged, mean of 2 arrays, mostly near background
Reference: not given
Direction: higher = stronger binding
Residues (chain): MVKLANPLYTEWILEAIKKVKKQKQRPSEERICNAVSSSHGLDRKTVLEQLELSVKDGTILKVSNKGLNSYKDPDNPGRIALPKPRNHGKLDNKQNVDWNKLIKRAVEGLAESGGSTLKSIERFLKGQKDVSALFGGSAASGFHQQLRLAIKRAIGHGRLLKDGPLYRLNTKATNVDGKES
Sequence	E-score
CAACTGCA	-0.123
CGGAACAC	0.189
ATAGAATC	-0.126
CATCAGCG	0.225
GGCAGGGA	-0.0245
CACGAGAA	-0.132
CATGTTCA	-0.115
TGGAAACA	-0.123
AGGGCCTA	-0.161
GGTGACTA	-0.0772
AGCTCAGA	-0.103
AACCGAGT	0.0503
ATGTACGG	0.184
CCGTTCCG	0.285
GGTTGCTA	-0.0361
CCATTAGA	-0.172
ATTCCCGC	0.274
AGGAATGC	-6e-05
ACACAACC	0.0214
TGGACAAA	-0.101
GCACACAC	-0.0129
CGCGCCGC	0.377
ACGTAGAC	-0.161
ACCTTCCT	-0.0703
ACAACTTC	-0.0631

Set 2
Target: Interferon regulatory factor 5, full length, phosphomimetic (IRF5, Homo sapiens, UniProt Q13568-2, residues 1-514, K96S/S451D/S453D/S456D/S462D)
Technique: protein-binding microarray
Molecule type: double-stranded DNA, one strand shown
Matrix: in vitro
Tested at: 250 nM
Setting: 60-bp whole probe
Together with: salmon DNA 0.4 mg/ml
Reference: random background probes
Direction: higher = stronger binding
All sequences stand within: GCCTAGCAC … GTCTTGATTCGCTTGACGCTGCTG
Sequence	log fluorescence [z-score]
TTAGGTATCGATCTCGGTTAGTGCTAG	5.66
TTAGACCTGGGGACTGGATTAGTGCTA	-0.617
ATCACTTTCCACTTGTCTTTGTGCTAG	2.13
ATAGGACTGGGTCTCGGTTAGTGCTAG	-0.118
TTAGGACTGGTTATCCTTTAGTGCTAG	-0.314
TTAGGTTCCGGTTTCGGTAAGTGCTAG	9.15
TCATTTTTTTTTTTTTCACTGTGCTAG	1.69
TTAGTTATCAGACTGGATTAGTGCTAG	0.381
GAAGAACTGGGGTATCGAGACGTGCTA	0.417
TTAGGTATCCTTTTCCTCTAGTGCTAG	0.476
GTAGATATCAGTATCGATTAGTGCTAG	7.89
TTCAATTTTTGCATCGTAAGGTGCTAG	0.916
GCAGGGTATAGGCATTCCCTGTGCTAG	-0.805
GACGGTTTCGGTATCGGGCCGTGCTAG	9.68
CCAAGTCTTGTTTTACAATTGTGCTAG	0.183
TTCCTTTGCTTTCTCCCAAGGTGCTAG	2.53
GTCGGTTTCCTTTCCCTGACGTGCTAG	2.01
TTAGGTTTCGGTTTAGGTTAGTGCTAG	10.8
TTAGGTCTCGGTTTAGGTTAGTGCTAG	1.23
TTAGGTCTCCTACTGCTTTTGTGCTAG	-0.219
TTAGGTATCCTTATCCTATAGTGCTAG	0.174
TAAGGTCTCCTTATCCTTTAGTGCTAG	-0.206

Set 3
Target: Sal-like protein 4, full length isoform B (SALL4, Homo sapiens, UniProt Q9UJQ4-2, residues 1-616)
Technique: universal PBM
Molecule type: double-stranded DNA, one strand shown
Matrix: in vitro
Tested at: not given
Setting: 8-mer, flanks averaged, mean of replicates
Direction: higher = stronger binding
Sequence	E-score
CAGTTTAC	0.0278
AACAAGTG	-0.0222
GACAGATA	0.0646
AGCAACGC	-0.146
GTGTCCTA	-0.0727
TACTGGAA	0.0471
ACTCTGTG	-0.0782
CACCCACG	-0.274
CGGTCCGA	-0.326
ATTGTGCG	0.0481
ATCTGCTA	0.13
CACCTGAA	0.11
AGTCTAAA	0.162
CCAACTCA	-0.0473
ATCCTGCA	0.0776
CTATATCC	0.0604
CCGTACTA	0.0569
ATATGCCG	0.155
AATGTCTA	0.208
ACTCTAAC	0.0756
GACATGTA	0.236
ATTCCACA	0.0691
ACCGACAG	-0.221
AAGAGCCG	-0.238

Set 4
Target: ABI1, truncated, D143A, DHFR fusion (Arabidopsis thaliana)
Technique: DHFR PCA, deep sequencing
Matrix: yeast
Setting: methotrexate growth selection, single substitutions
Together with: (+)-ABA 58 µM
Reference: wild-type fitted maximum
Direction: higher = stronger binding
Starting sequence: PYL1, truncated, DHFR fusion (Arabidopsis thaliana); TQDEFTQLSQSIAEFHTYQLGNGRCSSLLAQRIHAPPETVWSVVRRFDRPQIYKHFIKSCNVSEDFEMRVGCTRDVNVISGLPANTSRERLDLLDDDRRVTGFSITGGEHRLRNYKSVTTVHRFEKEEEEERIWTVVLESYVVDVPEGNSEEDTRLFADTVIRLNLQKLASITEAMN; partner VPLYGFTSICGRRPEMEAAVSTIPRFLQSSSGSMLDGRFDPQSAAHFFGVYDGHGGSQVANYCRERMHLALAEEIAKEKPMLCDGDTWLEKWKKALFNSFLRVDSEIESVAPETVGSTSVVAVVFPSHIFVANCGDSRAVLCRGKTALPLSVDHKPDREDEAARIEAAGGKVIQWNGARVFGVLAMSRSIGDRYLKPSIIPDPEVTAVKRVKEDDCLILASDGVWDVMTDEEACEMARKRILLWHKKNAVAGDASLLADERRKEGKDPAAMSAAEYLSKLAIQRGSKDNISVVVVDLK
Variant	relative binding score [%]
M176A	82.8
N22F	81.7
H122T	27.8
V143G	-0.668
Q167G	79.5
A170R	85.3
S87R	10.4
N77A	91.8
G102I	13.2
E147G	71.6
V118K	82.5
Q2C	91
P83T	9.25
L169R	-0.231
K58A	84.5
N22R	90.5
K126D	97.4
T73A	66.5

Set 5
Target: RNA binding protein fox-1 homolog 2, RRM domain, GST-SBP tag (RBFOX2, Homo sapiens, UniProt O43251-10, residues 100-194)
Technique: RNA Bind-n-Seq
Molecule type: RNA
Matrix: in vitro
Tested at: 365 nM
Setting: natural RNA segment, single round, ends assumed
Reference: no-protein control
Direction: higher = stronger binding
All sequences stand within: GGGAGUUCUACAGUCCGACGAUC … UGGAAUUCUCGGGUGCCAA
Residues (chain): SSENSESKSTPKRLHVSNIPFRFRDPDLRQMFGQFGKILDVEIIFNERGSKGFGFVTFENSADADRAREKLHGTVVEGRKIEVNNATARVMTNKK
Sequence	RBNS enrichment (R)
AAAAUGAUUGGAAAUGAACUCUUGCCCUGGAAUAACCUUGACAAUUCAAACCGCGAUGUUUACUUUUUGUAUUGAUCACUUUUUUGCACUCCUUCUUCGUUGUCGAUGUU	0.92
AGAGCUGUAUUAAGCCACUUAAAAUGUUCACUUUUGACAAAGGCAAGCACUUGUGGGUUUUUGUUUUGUUUUUCAUUCAGUCUUACGAAUACUUUUGCCCUUUGAUUAAA	0.585
CUCCAGCGGUGGGGAAGCCGCUGAAUCCACCUGCUUCUCCUUUGCAACCGACAGCAAACAGCUUUCUCCGGCCUCAGGGCAGAAAAAGGGAAUGGCAGGGAGUAAGAGGC	0.419
GAAGCAUUCCCUUGCAACCCGAGCACAUCAGCGAACCCCACGAAAGUGGAAUUUUCUAACAAAAUAAACUUGCUCAUUUGGUCCGUUUUCUGUAACUUUUGCUAAACACU	0.254
GUGACAGCUUGCUUCAGGACAAAGCAACAGUGAAGUGAGAAAAUGUCAACAGGAGAGAAAGGGCCCGGCAACCCUCUGGCCCUAACCUGCUCUAGCCUGUACAUCCCACA	0.602
AGUGUUGACCACUGAAGCAUCUUUUAAGUCUGUGUUCCAUUGUGCCAUUCAGGUUUGCUGUCACAUAUGCAUCAUCUGAAAUCAUUUGAAAUUUUUGUACAAUAAAAUAU	3.49
AGCAUCUCAGAUGGGGAAGGCACCUUCUUCCUCGCCUCUCCAGAUUGUCCUGGAACCUCCAGGAUCCUUGACUGAGGGCGUUGGGAUGGCUUGUAGGAUUUUUAAGAGAG	0.759
UCACAGGAGCACAGGCUGUACCACCACAAGGAGCCUCAGAGCGGCCAGUGAGGAAAGGGGAGAGAGCAGAGCUUGCUGUCAGAGGCCAGGCUCCCAGUGCAGCCUCCUCU	0.287
AAAUAUUGUCAUAAUAGAAGCACAGCUUGAACAAAAGACUGAAUUCUGAUAUAAACUGUCAAUAUUGCUUUUACCAUGUGUAAGAUUUACUUAGUAAUCACAGAUUUACC	0.496
AGUAAAAUGUAUAUAACUCUUACCUGUUGUCAUUCUUUUUCUUUUAAAUUUGUUGCUAAUCUCUGAUAAUGAAGAUUCUUACUCUGAUUCUCAGCUGAGCUGUGAGGGCU	0.987
UUAAGUAGACUUUGGACCGUUAAGCUGGGCAAAGGAAAUGACAAGGGGACGGGGUCUGUGAGAGUCAAUUCAGGGGAAAGAUACAAGAUUGAUUUGUAAAACCCUUGAAA	1.1
GCUUCAUAGAUGGCAUAUACCCUUCACCUUCAACUAACAGGAUACUCACCCCAAAGGCGCAGUCAGGAGGGGAGGGAACCCCAGCUGGGUUAGAAUUGGAAGGGAAGAGG	0.429

For quick reference, copied from above (set 2):
Sequence	log fluorescence [z-score]
TTAGGTATCCTTTTCCTCTAGTGCTAG	0.476
GTAGATATCAGTATCGATTAGTGCTAG	7.89
TTCAATTTTTGCATCGTAAGGTGCTAG	0.916
GCAGGGTATAGGCATTCCCTGTGCTAG	-0.805
GACGGTTTCGGTATCGGGCCGTGCTAG	9.68
CCAAGTCTTGTTTTACAATTGTGCTAG	0.183
TTCCTTTGCTTTCTCCCAAGGTGCTAG	2.53
GTCGGTTTCCTTTCCCTGACGTGCTAG	2.01
TTAGGTTTCGGTTTAGGTTAGTGCTAG	10.8
TTAGGTCTCGGTTTAGGTTAGTGCTAG	1.23
TTAGGTCTCCTACTGCTTTTGTGCTAG	-0.219
TTAGGTATCCTTATCCTATAGTGCTAG	0.174
